Published values of several laboratories.
Compare with care: the assays were run in different laboratories. ± marks the error that the study gave.
Organism: Plasmodium falciparum

Structure (SMILES) | test | test system | conditions | IC50 [nM]
CCCCNCC(O)Cn1c2ccc(Br)cc2c2cc(Br)ccc21 (stereo not shown) | SYBR Green I | Dd2 chloroquine-resistant | 72 h | 59 ± 12
C[C@H]1C(=O)O[C@@H]2O[C@@]3(C)CC[C@@H]4[C@@]2(OO3)[C@H]1CC[C@]4(C)O | parasite growth, SYBR Green I | 3D7, chloroquine-sensitive |  | 64.1
CC[C@H](C)[C@@H]1NC(=O)[C@H](CCCCN)NC(=O)[C@H](CCCCN)NC(=O)[C@H](Cc2ccc(O)cc2)NC(=O)[C@H](CC(C)C)NC(=O)[C@@H]2CCCN2C(=O)[C@H](C)NC(=O)CNC(=O)CNC(=O)[C@H](CO)NC(=O)CNC(=O)CNC(=O)[C@H](CO)NC(=O)[C@H](CCC(=O)O)NC(=O)[C@H](CC(C)C)NC(=O)[C@H](CC(C)C)NC(=O)[C@H](CCCCN)NC(=O)[C@H](CCCCN)NC(=O)[C@H]([C@@H](C)CC)NC(=O)[C@H]([C@@H](C)CC)NC(=O)[C@H](CCCCN)NC(=O)[C@H](CCCCN)NC(=O)[C@H](Cc2ccc(O)cc2)NC(=O)[C@H](CC(C)C)NC(=O)[C@@H]2CCCN2C(=O)[C@H](C)NC(=O)CNC(=O)[C@@H]2CSSC[C@H](NC(=O)[C@H](CC(C)C)NC(=O)[C@H](CCCCN)NC(=O)[C@H](CCCCN)NC(=O)[C@H]([C@@H](C)CC)NC1=O)C(=O)N[C@@H](CCCCN)C(=O)N[C@@H](CC(N)=O)C(=O)NCC(=O)N2 | parasite growth | 3D7 | 72 h, Albumax II medium, no serum | 13100 ± 1000
CCC1(c2ccccc2)OOC2(CCN(C(=O)c3ccccc3)CC2)OO1 | parasite growth, imaging | 3D7 | 48 h, blood stage | 18.4
CC1=CC(c2ccc[nH]2)=NC1=CNC1CCCCCCC1 | parasite growth | Dd2, chloroquine-resistant |  | > 250
CCCCc1cc(CN(Cc2ccccn2)Cc2ccccn2)c(O)c(CN(Cc2ccccn2)Cc2ccccn2)c1 | growth, [3H]hypoxanthine incorporation | HB3 chloroquine-sensitive | 48 h | 135 ± 10
COc1ccc2cc1Oc1cc3c(cc1OC)CCN(C)C3Cc1ccc(cc1)Oc1c(O)c(OC)cc3c1C(C2)N(C)CC3 (stereo not shown) | parasite growth, SYBR green I | INDO or Cam3.1 R539T, human red blood cells | 72 h | < 1000
N#Cc1c(-c2ccco2)[n+]([O-])c2ccc(F)cc2[n+]1[O-] | parasite growth, [3H]hypoxanthine incorporation | K1 chloroquine-resistant |  | 590 ± 60
CC[C@H](C)[C@@H]1NC(=O)[C@H](CCCCN)NC(=O)[C@H](CCCCN)NC(=O)[C@H](Cc2ccc(O)cc2)NC(=O)[C@H](CC(C)C)NC(=O)[C@@H]2CCCN2C(=O)[C@H](C)NC(=O)CNC(=O)CNC(=O)[C@H](CO)NC(=O)CNC(=O)CNC(=O)[C@H](CO)NC(=O)[C@H](CCC(=O)O)NC(=O)[C@H](CC(C)C)NC(=O)[C@H](CC(C)C)NC(=O)[C@H](CCCCN)NC(=O)[C@H](CCCCN)NC(=O)[C@H]([C@@H](C)CC)NC(=O)[C@H]([C@@H](C)CC)NC(=O)[C@H](CCCCN)NC(=O)[C@H](CCCCN)NC(=O)[C@H](Cc2ccc(O)cc2)NC(=O)[C@H](CC(C)C)NC(=O)[C@@H]2CCCN2C(=O)[C@H](C)NC(=O)CNC(=O)[C@@H]2CSSC[C@H](NC(=O)[C@H](CC(C)C)NC(=O)[C@H](CCCCN)NC(=O)[C@H](CCCCN)NC(=O)[C@H]([C@@H](C)CC)NC1=O)C(=O)N[C@@H](CCC(=O)O)C(=O)N[C@@H](CC(N)=O)C(=O)NCC(=O)N2 | parasite growth | 3D7 | 72 h, Albumax II medium, no serum | ~46000
O=C1C(O)=C(CNC2CCCC2)C(=O)c2ccccc21 | parasite growth | W2 | drug-resistant strain, blood stage | 16800
COC1=CC(c2ccc[nH]2)=NC12O[C@@H](C)C[C@@H]1CCCCC(=O)CCc3ccc([nH]3)[C@H]12 (stereo partly shown) | parasite growth | 7G8 | drug-resistant strain, blood stage | 199
CCc1c(C)[nH]c(C=NC23CC4CC(CC(C4)C2)C3)c1C | parasite growth | Dd2, chloroquine-resistant |  | 80
COc1cc(O)c(-c2cc(-c3cc(-c4c(O)cc(OC)c5c4C[C@@H](C)N[C@@H]5C)c4cc(C)cc(OC)c4c3O)c(O)c3c(OC)cc(C)cc23)c2c1[C@@H](C)N[C@H](C)C2 | parasite growth, SYBR Green | W2 | 96 h, drug-resistant strain, blood stage | 184
COc1ccc2c(=O)c3cc(OS(=O)(=O)C(F)(F)F)ccc3[nH]c2c1 | parasite growth |  |  | 60.7
CCC1=CC(=CNC2CCCCCCC2)N=C1c1ccc[nH]1 | parasite growth | 7G8, chloroquine-resistant |  | 1330
CC[C@H](C)[C@@H]1NC(=O)[C@H](CCCCN)NC(=O)[C@H](CCCCN)NC(=O)[C@H](Cc2ccc(O)cc2)NC(=O)[C@H](CC(C)C)NC(=O)[C@@H]2CCCN2C(=O)[C@H](C)NC(=O)CNC(=O)CNC(=O)[C@H](CO)NC(=O)CNC(=O)CNC(=O)[C@H](CO)NC(=O)[C@H](CCCCN)NC(=O)[C@H](CC(C)C)NC(=O)[C@H](CC(C)C)NC(=O)[C@H](CCCCN)NC(=O)[C@H](CCCNC(=N)N)NC(=O)[C@H]([C@@H](C)CC)NC(=O)[C@H]([C@@H](C)CC)NC(=O)[C@H](CCCCN)NC(=O)[C@H](CCCCN)NC(=O)[C@H](Cc2ccc(O)cc2)NC(=O)[C@H](CC(C)C)NC(=O)[C@@H]2CCCN2C(=O)CNC(=O)CNC(=O)[C@@H](NC(=O)CN)CSSC[C@@H](C(N)=O)NC(=O)[C@H](CC(C)C)NC(=O)[C@H](CCCCN)NC(=O)[C@H](CCCNC(=N)N)NC(=O)[C@H]([C@@H](C)CC)NC1=O | parasite growth | 3D7 | 72 h, 5% serum plus Albumax II | 16400 ± 2000
Clc1ccc(C2=CC(c3ccc[nH]3)=NC2=CNC2CCCCCC2)cc1 | parasite growth | Dd2, chloroquine-resistant |  | 1250
CC[C@H](C)[C@@H]1NC(=O)[C@H](CCCCN)NC(=O)[C@H](CCCCN)NC(=O)[C@H](Cc2ccc(O)cc2)NC(=O)[C@H](CC(C)C)NC(=O)[C@@H]2CCCN2C(=O)[C@H](C)NC(=O)CNC(=O)CNC(=O)[C@H](CO)NC(=O)CNC(=O)CNC(=O)[C@H](CO)NC(=O)[C@H](CCC(=O)O)NC(=O)[C@H](CC(C)C)NC(=O)[C@H](CC(C)C)NC(=O)[C@H](CCCNC(=N)N)NC(=O)[C@H](CCCCN)NC(=O)[C@H]([C@@H](C)CC)NC(=O)[C@H]([C@@H](C)CC)NC(=O)[C@H](CCCCN)NC(=O)[C@H](CCCCN)NC(=O)[C@H](Cc2ccc(O)cc2)NC(=O)[C@H](CC(C)C)NC(=O)[C@@H]2CCCN2C(=O)[C@H](C)NC(=O)CNC(=O)CNC(=O)[C@H](CO)NC(=O)CNC(=O)CNC(=O)[C@H](CO)NC(=O)[C@H](CCC(=O)O)NC(=O)[C@H](CC(C)C)NC(=O)[C@H](CC(C)C)NC(=O)[C@H](CCCNC(=N)N)NC(=O)[C@H](CCCCN)NC(=O)[C@H]([C@@H](C)CC)NC1=O | parasite growth | 3D7 | 72 h, 5% serum plus Albumax II | 12500 ± 900
C(=NC12CC3CC(CC(C3)C1)C2)c1cc(-c2ccc[nH]2)c[nH]1 | parasite growth | Dd2, chloroquine-resistant |  | > 2500
O=C(O)[C@@H]1Cc2c([nH]c3ccccc23)[C@@H](c2ccc(I)cc2F)N1 | parasite growth | Dd2 | 72 h | 3340 ± 496
C1=CC(c2ccc[nH]2)=NC1=CNC12CC3CC(CC(C3)C1)C2 | parasite growth | 7G8, chloroquine-resistant |  | 235
Cc1ccc(C(C)C)cc1.Clc1ccc2c(NCCNCc3ccccn3)ccnc2c1.[Cl-].[Cl][Ru+] | parasite growth, parasite lactate dehydrogenase | Dd2 chloroquine-resistant |  | 21900 ± 1000

A few entries again:
Structure (SMILES) | test | test system | conditions | IC50 [nM]
CCC1=CC(=CNC2CCCCCCC2)N=C1c1ccc[nH]1 | parasite growth | 7G8, chloroquine-resistant |  | 1330
